{"data": "Measured values from different studies", "FUT1": "FUT1 (Homo sapiens, UniProt P19526)", "Caspase-2": "Caspase-2 (Homo sapiens, UniProt P42575)", "TYMS": "Thymidylate synthase (TYMS, Homo sapiens, UniProt P04818)", "TSPO": "Translocator protein (TSPO, Homo sapiens, UniProt P30536)", "Hrh3": "Histamine H3 receptor (Hrh3, Rattus norvegicus, UniProt Q9QYN8)", "FUT8": "Alpha-(1,6)-fucosyltransferase (FUT8, Homo sapiens, UniProt Q9BYC5)", "Nos2": "Nitric oxide synthase, inducible (Nos2, Mus musculus, UniProt P29477)", "Caspase-2 circularly permuted": "Caspase-2, circularly permuted (Homo sapiens, UniProt P42575)", "SIGMAR1": "Sigma non-opioid intracellular receptor 1 (SIGMAR1, Cavia porcellus, UniProt Q60492)", "note": "Each line is one published result; not all experiments were run side by side. ± gives the spread as reported."}
{"SMILES": "Nc1nc2c(ncn2[C@@H]2O[C@H](COP(=O)(O)OP(=O)(O)O[C@H]3O[C@@H](CNC(=O)c4ccccc4)[C@@H](O)[C@@H](O)[C@@H]3F)[C@@H](O)[C@H]2O)c(=O)[nH]1", "target": "FUT1", "test": "enzyme activity, inhibitor", "Ki [µM]": 7.1}
{"SMILES": "CCCCN(CCc1ccccc1)CCc1cccc(O)c1", "target": "Mu-type opioid receptor (Oprm1, Rattus norvegicus, UniProt P33535)", "test": "ligand displacement, radioligand", "setting": "cell membranes", "Ki [µM]": 0.36}
{"SMILES": "O=c1ccn([C@@H]2O[C@H](COP(=O)(O)OP(=O)(O)O[C@H]3OC[C@@H](O)[C@H](O)[C@H]3O)[C@@H](O)[C@H]2O)c(=O)[nH]1", "target": "UDP-glucose 6-dehydrogenase (sqv-4, Caenorhabditis elegans, UniProt Q19905)", "test": "inhibitor", "Ki [µM]": "6.9 ± 0.6"}
{"SMILES": "CC[C@H](C)[C@H](NC(C)=O)C(=O)N[C@H](C(=O)N[C@H](C(=O)N[C@@H](CN)C(=O)N[C@H](C=O)CC(=O)O)C(C)C)[C@@H](C)O", "target": "Caspase-2", "test": "enzyme activity, inhibitor, fluorescence", "setting": "pH 6.5", "Ki [µM]": 1.17}
{"SMILES": "CCCCCCCCCC[C@@H]1O[C@@H]1CCCCC(C)C", "target": "pheromone-binding protein 2 (Lymantria dispar, UniProt O16106)", "test": "binding, competitive fluorescence binding", "setting": "pH 5.5, pheromone-binding protein 2, together with: 1-NPN probe", "Ki [µM]": "5.54 ± 0.04"}
{"SMILES": "O=C(O)C1CC(OS(=O)(=O)c2ccc(-c3ccc(F)cc3)cc2)CN1 (stereo not shown)", "target": "Neutral amino acid transporter B(0) (Slc1a5, Rattus norvegicus, UniProt D3ZJ25)", "test": "ion current, inhibitor, patch clamp", "Ki [µM]": 40}
{"SMILES": "CC1(C)NC(N)=Nc2nc3c(Cl)cc(Cl)cc3n21", "target": "TYMS", "test": "inhibitor", "Ki [µM]": "> 500"}
{"SMILES": "CC[C@H](C)[C@H](NC(=O)[C@@H](NC(=O)[C@H](CO)NC(=O)[C@@H](NC(=O)[C@H](CCC(N)=O)NC(=O)[C@H](Cc1c[nH]c2ccccc12)NC(=O)[C@@H](N)CS)[C@@H](C)O)[C@@H](C)CC)C(=O)O", "target": "Na(+)/H(+) exchange regulatory cofactor NHE-RF1, PDZ2 domain (NHERF1, Homo sapiens, UniProt O14745)", "test": "binding to PDZ2 domain, inhibitor, fluorescence polarization", "Ki [µM]": "> 5000"}
{"SMILES": "CC(Oc1cc(-c2ccccc2)nc2cccnc12)C(=O)N(C)c1ccccc1 (stereo not shown)", "target": "TSPO", "test": "cell-free assay", "Ki [µM]": 0.023}
{"SMILES": "Fc1cc(CN2CCOCC2)ccc1OCCCN1CCN(c2cccc3sccc23)CC1", "target": "Hrh3", "test": "ligand displacement, radioligand", "setting": "cell membranes", "Ki [µM]": 0.061}
{"SMILES": "O[C@@H]1[C@@H](O)[C@H](O[C@@H]2OC[C@@H](O)[C@H](O)[C@H]2O)C[C@H]2O[C@@H]12", "target": "endo-1,4-beta-xylanase (Aspergillus aculeatus, UniProt A0A1L9WG58)", "test": "covalent inhibitor", "setting": "pH 5.0, together with: 4MU-β-D-xylobioside 1 mM", "Ki [µM]": 44.7}
{"SMILES": "N=C(N)Nc1nc2cc(C(F)(F)F)ccc2[nH]1", "target": "Pteridine reductase (PTR1, Trypanosoma brucei brucei, UniProt O76290)", "test": "inhibitor", "setting": "pH 3.7", "Ki [µM]": 17.8}
{"SMILES": "CCC1(CC)C(=O)N(c2cccc(CN3CCN(Cc4cccc5ccccc45)CC3)c2)C1=O", "target": "Dipeptidyl peptidase 9 (DPP9, Homo sapiens, UniProt Q86TI2)", "test": "enzyme activity, inhibitor, fluorescence", "Ki [µM]": "> 2"}
{"SMILES": "COC(=O)[C@@H](CS)N1C(=O)c2ccc(N(C)C)cc2C1=O", "target": "Metallo-beta-lactamase type 2 (blaNDM-1, Klebsiella pneumoniae, UniProt C7C422)", "test": "enzyme activity, inhibitor", "setting": "Km 0.55 µM, together with: chromacef 25 µM", "Ki [µM]": "0.17 ± 0.02"}
{"SMILES": "Nc1nc2c(ncn2[C@@H]2O[C@H](COP(=O)(O)OP(=O)(O)O[C@H]3O[C@@H](CNC(=O)Cc4ccccc4)[C@@H](O)[C@@H](O)[C@@H]3F)[C@@H](O)[C@H]2O)c(=O)[nH]1", "target": "FUT8", "test": "enzyme activity, inhibitor", "Ki [µM]": 208}
{"SMILES": "COc1ccc(CCCN[C@@H]2CCC[C@H]2CN[C@@H]2CCC[C@H]2CNCCCCN[C@H]2CCC[C@@H]2CN)cc1", "target": "Amine oxidase [flavin-containing] A (MAOA, Homo sapiens, UniProt P21397)", "test": "enzyme activity, inhibitor", "Ki [µM]": 350}
{"SMILES": "CC[C@H](C)[C@H](NC(=O)[C@@H](NC(=O)[C@H](CO)NC(=O)[C@@H](NC(=O)[C@@H]1CCCN1C(=O)[C@H](Cc1c[nH]c2ccccc12)NC(=O)[C@@H](N)CS)[C@@H](C)O)[C@@H](C)CC)C(=O)O", "target": "Na(+)/H(+) exchange regulatory cofactor NHE-RF1, PDZ1 domain (NHERF1, Homo sapiens, UniProt O14745)", "test": "binding to PDZ1 domain, inhibitor, fluorescence polarization", "Ki [µM]": "> 5000"}
{"SMILES": "Cc1cc(N)nc(C[C@H]2CNC[C@H]2OCCC/C=C/c2cccc(F)c2)c1", "target": "Nos2", "test": "enzyme activity, inhibitor", "setting": "pH 7.4", "Ki [µM]": 134}
{"SMILES": "CC[C@H](C)[C@H](NC(C)=O)C(=O)N[C@H](C(=O)N[C@H](C(=O)N[C@@H](CCN)C(=O)N[C@H](C=O)CC(=O)O)C(C)C)[C@@H](C)O", "target": "Caspase-2", "test": "enzyme activity, inhibitor, fluorescence", "setting": "pH 6.5", "Ki [µM]": 1.41}
{"SMILES": "Cc1cc2nc3n(c2cc1C)C(C)(C)NC(N)=N3", "target": "TYMS", "test": "inhibitor", "Ki [µM]": "> 500"}
{"SMILES": "CC[C@H](C)[C@H](NC(C)=O)C(=O)N[C@H](C(=O)N[C@H](C(=O)N[C@@H](CCCCNC(C)=O)C(=O)N[C@H](C=O)CC(=O)O)C(C)C)[C@@H](C)O", "target": "Caspase-2 circularly permuted", "test": "enzyme activity, inhibitor", "setting": "pH 6.5, 37 °C, together with: Z-VDVAD-AFC", "Ki [µM]": 0.575}
{"SMILES": "O=C(c1ccc(=O)n(CCF)c1)C1CCN(C2Cc3ccccc3CC2O)CC1 (single isomer, unassigned; (+))", "target": "SIGMAR1", "test": "binding", "system": "guinea pig", "setting": "together with: (+)-[3H]pentazocine", "Ki [µM]": "0.0247 ± 0.0039"}
{"SMILES": "CC[C@H](C)[C@H](NC(C)=O)C(=O)N[C@H](C(=O)N[C@H](C(=O)N[C@@H](CCCN)C(=O)N[C@H](C=O)CC(=O)O)C(C)C)[C@@H](C)O", "target": "Caspase-2 circularly permuted", "test": "enzyme activity, inhibitor", "setting": "pH 6.5, 37 °C, together with: Z-VDVAD-AFC", "Ki [µM]": 0.724}
{"SMILES": "c1cc(N2CCN(CCCOc3ccc(CN4CCCCC4)cc3)CC2)c2ccsc2c1", "target": "Hrh3", "test": "ligand displacement, radioligand", "setting": "cell membranes", "Ki [µM]": 0.0472}
{"SMILES": "COc1ccc2[nH]c(-c3cccc4ccccc34)c(CCNC(=O)CI)c2n1", "target": "Melatonin receptor type 1B (MTNR1B, Homo sapiens, UniProt P49286)", "test": "ligand displacement, radioligand", "setting": "cell membranes", "Ki [µM]": 0.000794}
{"SMILES": "O=C(c1ccc(NCCF)cc1)C1CCN(C2Cc3ccccc3CC2O)CC1 (single isomer, unassigned; (-))", "target": "Sigma intracellular receptor 2 (Tmem97, Rattus norvegicus, UniProt Q5U3Y7)", "test": "ligand displacement, radioligand", "Ki [µM]": 5.48}
{"SMILES": "O=C(O)COc1cccc(NC(=O)c2cc(-c3cccc(F)c3)ccc2F)c1", "target": "Prostaglandin D2 receptor (PTGDR, Homo sapiens, UniProt Q13258)", "test": "ligand displacement, radioligand", "setting": "cell membranes", "Ki [µM]": "> 10"}
{"SMILES": "CC(=O)N[C@H](C(=O)N[C@@H](CC(=O)O)C(=O)N[C@H](C(=O)N[C@H](CCCCN)C(=O)N[C@H](C=O)CC(=O)O)C(C)C)C(C)C", "target": "Caspase-2 circularly permuted", "test": "enzyme activity, inhibitor", "setting": "pH 6.5, 37 °C, together with: Z-VDVAD-AFC", "Ki [µM]": "> 100"}
{"SMILES": "Cc1cc(N)nc(CC2CNCC2OCCNCC(F)(F)c2ccccc2)c1 (stereo not shown)", "target": "Nos2", "test": "enzyme activity, inhibitor, hemoglobin capture", "Ki [µM]": 85}
{"SMILES": "C[C@@H]1O[C@H](OP(=O)(O)OP(=O)(O)OC[C@H]2O[C@@H](n3cnc4c(=O)[nH]c(N)nc43)[C@H](O)[C@@H]2O)[C@@H](F)[C@H](O)[C@@H]1O", "target": "FUT1", "test": "enzyme activity, inhibitor", "Ki [µM]": 35.9}
{"SMILES": "CC(=O)N[C@H](C(=O)N[C@@H](CC(=O)O)C(=O)N[C@H](C(=O)N[C@H](CCN)C(=O)N[C@H](C=O)CC(=O)O)C(C)C)C(C)C", "target": "Caspase-2 circularly permuted", "test": "enzyme activity, inhibitor", "setting": "pH 6.5, 37 °C, together with: Z-VDVAD-AFC", "Ki [µM]": 38.9}
{"SMILES": "Nc1nc2c(ncn2[C@@H]2O[C@H](COP(=O)(O)OP(=O)(O)O[C@H]3O[C@@H](CNC(=O)CCc4ccccc4)[C@@H](O)[C@@H](O)[C@@H]3F)[C@@H](O)[C@H]2O)c(=O)[nH]1", "target": "FUT8", "test": "enzyme activity, inhibitor", "Ki [µM]": 80.7}
{"SMILES": "CC(=O)N[C@@H](C)C(=O)N[C@@H](CC(=O)O)C(=O)N[C@@H](CCCNC(=N)N)C(=O)N[C@H](C(=O)N[C@H](C=O)CC(=O)O)[C@@H](C)O", "target": "Caspase-2", "test": "enzyme activity, inhibitor, fluorescence", "setting": "pH 6.5", "Ki [µM]": 0.186}
{"SMILES": "Clc1ccc2ccc3[n+](c2c1)[Ir-3]12([c]4ccccc4-3)([c]3ccccc3-c3ccc4ccc(Cl)cc4[n+]31)[n+]1ccccc1-c1cccc[n+]12.F[P-](F)(F)(F)(F)F", "target": "Cyclin-dependent kinase 9, with cyclin T1 (CDK9, Homo sapiens, UniProt P50750)", "test": "inhibitor", "setting": "together with: ATP", "Ki [µM]": 0.0033}
{"SMILES": "CC(Oc1nc(-c2ccccc2)nc2ccccc12)C(=O)N(C)c1ccccc1 (stereo not shown)", "target": "TSPO", "test": "cell-free assay", "Ki [µM]": 0.002}
{"SMILES": "CC(=O)N[C@@H](CC(=O)O)C(=O)N[C@@H](CCCNC(=N)N)C(=O)N[C@@H](C)C(=O)N[C@H](C=O)CC(=O)O", "target": "Caspase-2", "test": "enzyme activity, inhibitor, fluorescence", "setting": "pH 6.5", "Ki [µM]": 0.407}
{"SMILES": "Cc1cc(C)cc(NC(=O)CCN2CCCCCC2)c1", "target": "SIGMAR1", "test": "ligand displacement, radioligand", "Ki [µM]": 0.0014}
{"SMILES": "Nc1ncnc2c1ncn2[C@H]1O[C@@H](COP(=O)(O)O)[C@H](O)[C@@H]1O", "target": "Adenylate kinase isoenzyme 1 (AK1, Homo sapiens, UniProt P00568)", "test": "enzyme activity, competitive inhibitor", "setting": "together with: D-AMP substrate, 0.2 mM ATP", "Ki [µM]": 200}
{"SMILES": "Fc1cc(OCCCN2CCN(c3cccc4sccc34)CC2)ccc1CN1CCOCC1", "target": "Hrh3", "test": "ligand displacement, radioligand", "setting": "cell membranes", "Ki [µM]": 0.0542}
{"SMILES": "Cc1cc(C(C)(C)C)ccc1OCCOCCN(C)C", "target": "SIGMAR1", "test": "ligand displacement, radioligand", "Ki [µM]": 0.0008}
{"note": "A few entries again:"}
{"SMILES": "Nc1ncnc2c1ncn2[C@H]1O[C@@H](COP(=O)(O)O)[C@H](O)[C@@H]1O", "target": "Adenylate kinase isoenzyme 1 (AK1, Homo sapiens, UniProt P00568)", "test": "enzyme activity, competitive inhibitor", "setting": "together with: D-AMP substrate, 0.2 mM ATP", "Ki [µM]": 200}
{"SMILES": "Fc1cc(OCCCN2CCN(c3cccc4sccc34)CC2)ccc1CN1CCOCC1", "target": "Hrh3", "test": "ligand displacement, radioligand", "setting": "cell membranes", "Ki [µM]": 0.0542}
{"SMILES": "Cc1cc(C(C)(C)C)ccc1OCCOCCN(C)C", "target": "SIGMAR1", "test": "ligand displacement, radioligand", "Ki [µM]": 0.0008}
